Assay results from different studies.
A part holds a random share of what one study measured. Substitutions count along the parent as printed.

Block 1 — method: DHFR PCA, deep sequencing; matrix: yeast; with: (+)-ABA 0.11 µM; relative to: wild-type fitted maximum; reading: higher = stronger binding; endpoint: relative binding score
Target: ABI1, truncated, D143A, DHFR fusion (Arabidopsis thaliana)
Notes: methotrexate growth selection, single substitutions
Starting sequence: PYL1, truncated, DHFR fusion (Arabidopsis thaliana); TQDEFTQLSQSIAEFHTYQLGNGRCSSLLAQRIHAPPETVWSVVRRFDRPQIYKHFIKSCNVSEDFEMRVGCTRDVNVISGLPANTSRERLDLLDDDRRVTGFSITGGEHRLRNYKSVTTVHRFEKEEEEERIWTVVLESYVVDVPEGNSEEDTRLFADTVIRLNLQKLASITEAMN
E64I: 6.29%
P146V: 29.6%
V121D: -4.19%
G148N: -4.36%
A35D: -1.5%
I12M: 2.43%
T1Y: 37.2%
W41Y: -12.4%
C25V: 61.4%
Q167D: 8.59%
R49H: 5.8%
Q31M: -1.5%
L166T: 2.38%
S26F: -1.59%
T39G: -0.747%

Block 2 — target: CCNF, cyclin fold, Cln2 fusion (human); method: yeast growth competition, sequencing; matrix: yeast; notes: weak parent motif; relative to: not given; reading: higher = stronger binding; endpoint: normalised enrichment score
Starting sequence: LLGL2 docking peptide (human); KSLKKSLRQSFRR; partner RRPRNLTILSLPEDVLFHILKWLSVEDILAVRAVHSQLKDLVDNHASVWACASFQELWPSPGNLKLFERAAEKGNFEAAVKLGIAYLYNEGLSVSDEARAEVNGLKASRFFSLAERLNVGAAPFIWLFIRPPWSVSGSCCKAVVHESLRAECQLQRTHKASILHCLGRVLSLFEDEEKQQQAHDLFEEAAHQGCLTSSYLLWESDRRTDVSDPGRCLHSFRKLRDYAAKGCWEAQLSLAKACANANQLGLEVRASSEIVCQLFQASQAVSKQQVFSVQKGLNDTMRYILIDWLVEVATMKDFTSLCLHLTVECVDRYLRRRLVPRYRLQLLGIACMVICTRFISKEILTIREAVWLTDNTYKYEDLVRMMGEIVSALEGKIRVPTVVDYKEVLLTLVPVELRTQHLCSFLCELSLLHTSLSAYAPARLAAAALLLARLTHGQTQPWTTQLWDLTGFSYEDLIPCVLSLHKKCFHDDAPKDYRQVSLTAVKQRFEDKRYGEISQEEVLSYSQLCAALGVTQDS
R13A: 0.875
K5A: 1.07
Q9A: 1.54
R12A: 1.15
S6A: 0.755
L7A: 0.427

Block 3 — method: RNA Bind-n-Seq; molecule type: RNA; matrix: in vitro; tested at: 200 nM; notes: whole 134-nt RNA, ends assumed; with: 150 mM KCl; relative to: input library; reading: higher = stronger binding; endpoint: log2 enrichment
Target: Ras GTPase-activating protein-binding protein 1, full length (G3BP1, Homo sapiens, UniProt Q13283)
UniProt Q13283, sequence (whole entry, looked up): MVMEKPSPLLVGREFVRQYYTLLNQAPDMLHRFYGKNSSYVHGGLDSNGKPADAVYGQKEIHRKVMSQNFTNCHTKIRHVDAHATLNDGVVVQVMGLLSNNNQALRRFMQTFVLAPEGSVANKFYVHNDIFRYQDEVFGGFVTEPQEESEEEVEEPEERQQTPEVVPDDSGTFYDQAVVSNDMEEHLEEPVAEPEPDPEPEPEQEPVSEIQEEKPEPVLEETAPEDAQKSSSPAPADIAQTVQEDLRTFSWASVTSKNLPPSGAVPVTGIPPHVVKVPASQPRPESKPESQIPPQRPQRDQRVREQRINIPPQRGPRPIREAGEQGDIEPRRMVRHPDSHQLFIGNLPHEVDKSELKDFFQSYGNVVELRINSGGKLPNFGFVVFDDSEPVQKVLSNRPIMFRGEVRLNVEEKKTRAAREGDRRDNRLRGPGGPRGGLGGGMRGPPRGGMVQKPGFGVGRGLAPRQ
All sequences stand within: GGGAGUUCUACAGUCCGACGAUC … UGGAAUUCUCGGGUGUCAAGG
UCCUGUGCUACACAUCGUAUGUACCGAAUCGGGGAAAAAAAGGGGAAAGGGGUUUGGGGAAAGUAUUAUGUUACGCCGUUCGGAUCUGCA: 0.841
UGGCCCUGGUGGCAUGCGGGGAGGAAGAGGUGGCCUCAUGGAUCGUGGUGGUCCCGGUGGAAUGUUCAGAGCUGGCCGUGGUGGAGACAG: 0.112
AGUCCUGUGCUACACAUCGUAUGUACCGAAUCGGGUUUUUGGGUUUUUGGGUUUUUGGAAAGUAUUAUGUUACGCCGUUCGGAUCUGCAC: -0.868
CUCAAGUCCUGUGCUACACAUCGUAUGUACCGAAUCGGUUUGGUUUUUGGAGGAAAGUAUUAUGUUACGCCGUUCGGAUCUGCACUUCCA: -0.324
CUGUGCUACACAUCGUAUGUACCGAAUCGGUUUUUUUGGGUUUUUUUGGGGUUUUUUUGGGGAAAGUAUUAUGUUACGCCGUUCGGAUCU: -0.88
UGGGAGGUGGAUUUCGUUUAUUUUUUUAGCUCAUUUCCAGGGGUGGGAAUUUUUUUUUAAUAUGUGUCAUGAAUAAAGUUGUUUUUGAAA: -0.0526
CAAGUCCUGUGCUACACAUCGUAUGUACCGAAUCGGUUUGGAAAAAAAGGAAAGGAAAGUAUUAUGUUACGCCGUUCGGAUCUGCACUUC: -0.942
UCAAGUCCUGUGCUACACAUCGUAUGUACCGAAUCGGGUGGGUGGGAAAAAGGGAAAGUAUUAUGUUACGCCGUUCGGAUCUGCACUUCC: 0.863
CAAGUCCUGUGCUACACAUCGUAUGUACCGAAUCGGGUUUUUGGGUGGGUUUGGGAAAGUAUUAUGUUACGCCGUUCGGAUCUGCACUUC: 0.421
ACCAUGCAGGUGGGCAUCUUUGGGAAGUGGGGCAAGGGGGGGAUAGGGAGGGGGGUAACACUUUGGGAACAGGUGGUCCCAGGUCGUUUC: 1.15
AGUCCUGUGCUACACAUCGUAUGUACCGAAUCGGGCCCCCGGCCCCCGGGCCCCCGGAAAGUAUUAUGUUACGCCGUUCGGAUCUGCACU: -0.633
UGGGAGGUGGAUUUUGUUUAUUUUUUUAGCUCAUUUCCAGGGGUGGGAAUUUUUUUUUUAUAUGUGUCAUGAAUAAAGUUGUUUUUGAAA: 0.209
UCAAGUCCUGUGCUACACAUCGUAUGUACCGAAUCGGGUUGGGGUUGGGUUGGGGAAAGUAUUAUGUUACGCCGUUCGGAUCUGCACUUC: 1.02

Other studies, line by line
PhoQ, residues 284 288 289 292 302 303 AQGLTV — fold induction (PhoP, residues 12 14 15 18 19 NFCKL (Escherichia coli, UniProt P23836); Sort-seq, measured: YFP reporter; E. coli; PhoQ-PhoP variant library, with: 10 µM Mg2+; relative to: high Mg2+ state, higher = stronger signaling): 0.557
